Measurements pooled from the literature.
± gives the spread as reported.
CNR2: Cannabinoid receptor 2 (CNR2, Homo sapiens, UniProt P34972)
Sequence of UniProt P34972 (whole entry, looked up): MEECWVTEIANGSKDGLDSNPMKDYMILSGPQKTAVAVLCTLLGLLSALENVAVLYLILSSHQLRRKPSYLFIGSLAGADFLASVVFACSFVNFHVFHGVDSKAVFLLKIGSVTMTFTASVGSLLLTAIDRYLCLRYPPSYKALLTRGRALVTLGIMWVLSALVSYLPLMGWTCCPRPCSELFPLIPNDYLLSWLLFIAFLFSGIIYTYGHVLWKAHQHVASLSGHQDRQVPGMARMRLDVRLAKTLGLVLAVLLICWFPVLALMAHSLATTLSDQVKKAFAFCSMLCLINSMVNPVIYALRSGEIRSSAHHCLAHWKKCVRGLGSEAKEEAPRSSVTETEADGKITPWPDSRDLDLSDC
C3AR1: C3a anaphylatoxin chemotactic receptor (C3AR1, Homo sapiens, UniProt Q16581)
Sequence of UniProt Q16581 (whole entry, looked up): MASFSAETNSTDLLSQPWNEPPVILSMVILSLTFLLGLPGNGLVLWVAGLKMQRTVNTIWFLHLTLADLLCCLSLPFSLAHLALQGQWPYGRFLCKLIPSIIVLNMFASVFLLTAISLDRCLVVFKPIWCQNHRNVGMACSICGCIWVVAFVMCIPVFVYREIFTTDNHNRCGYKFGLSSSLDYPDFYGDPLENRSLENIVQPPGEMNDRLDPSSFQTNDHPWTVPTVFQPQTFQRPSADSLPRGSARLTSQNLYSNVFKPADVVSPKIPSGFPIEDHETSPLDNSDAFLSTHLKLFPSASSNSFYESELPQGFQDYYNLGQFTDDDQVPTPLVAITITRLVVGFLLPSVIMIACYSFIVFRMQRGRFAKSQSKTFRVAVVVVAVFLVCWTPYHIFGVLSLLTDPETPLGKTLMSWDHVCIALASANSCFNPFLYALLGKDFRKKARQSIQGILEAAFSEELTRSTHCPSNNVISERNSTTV
GNRHR: Gonadotropin-releasing hormone receptor (GNRHR, Homo sapiens, UniProt P30968)
Sequence of UniProt Q8TDU9 (whole entry, unmodified, looked up): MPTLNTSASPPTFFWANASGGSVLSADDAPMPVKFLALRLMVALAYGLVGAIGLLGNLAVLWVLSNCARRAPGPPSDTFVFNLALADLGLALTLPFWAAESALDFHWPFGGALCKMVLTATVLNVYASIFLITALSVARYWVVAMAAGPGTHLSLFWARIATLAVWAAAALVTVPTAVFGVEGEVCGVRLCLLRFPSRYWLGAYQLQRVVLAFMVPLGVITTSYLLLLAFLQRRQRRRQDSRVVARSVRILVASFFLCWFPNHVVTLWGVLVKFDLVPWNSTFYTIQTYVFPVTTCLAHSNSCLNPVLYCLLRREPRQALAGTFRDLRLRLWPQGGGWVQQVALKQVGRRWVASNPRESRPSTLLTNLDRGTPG
Sequence of UniProt P30968 (whole entry, looked up): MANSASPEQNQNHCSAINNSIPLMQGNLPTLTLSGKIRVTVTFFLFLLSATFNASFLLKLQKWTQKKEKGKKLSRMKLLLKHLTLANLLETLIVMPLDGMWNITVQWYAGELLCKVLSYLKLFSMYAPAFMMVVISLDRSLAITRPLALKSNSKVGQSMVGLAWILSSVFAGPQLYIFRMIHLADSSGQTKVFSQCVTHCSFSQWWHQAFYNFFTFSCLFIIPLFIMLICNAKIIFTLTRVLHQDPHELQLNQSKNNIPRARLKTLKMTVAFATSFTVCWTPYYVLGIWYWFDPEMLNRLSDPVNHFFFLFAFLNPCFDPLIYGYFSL
Sequence of UniProt Q969F8 (whole entry, unmodified, looked up): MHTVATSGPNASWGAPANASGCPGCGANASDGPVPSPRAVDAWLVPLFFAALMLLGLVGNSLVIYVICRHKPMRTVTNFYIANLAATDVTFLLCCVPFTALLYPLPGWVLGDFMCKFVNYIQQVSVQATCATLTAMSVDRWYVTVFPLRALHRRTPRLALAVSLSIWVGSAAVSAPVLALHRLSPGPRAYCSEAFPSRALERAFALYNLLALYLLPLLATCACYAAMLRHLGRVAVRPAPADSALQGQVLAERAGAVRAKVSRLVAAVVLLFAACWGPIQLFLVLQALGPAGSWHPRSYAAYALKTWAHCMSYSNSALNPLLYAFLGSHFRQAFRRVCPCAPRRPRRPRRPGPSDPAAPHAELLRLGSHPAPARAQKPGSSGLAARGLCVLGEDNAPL
Sequence of UniProt P07026 (whole entry, looked up): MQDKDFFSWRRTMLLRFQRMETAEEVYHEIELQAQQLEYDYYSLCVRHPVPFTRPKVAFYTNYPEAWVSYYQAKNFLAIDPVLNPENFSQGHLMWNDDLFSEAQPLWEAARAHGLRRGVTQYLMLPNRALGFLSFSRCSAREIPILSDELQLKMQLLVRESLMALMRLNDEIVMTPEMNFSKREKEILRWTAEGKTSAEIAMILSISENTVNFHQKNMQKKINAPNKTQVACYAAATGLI
Sequence of UniProt P25929 (whole entry, looked up): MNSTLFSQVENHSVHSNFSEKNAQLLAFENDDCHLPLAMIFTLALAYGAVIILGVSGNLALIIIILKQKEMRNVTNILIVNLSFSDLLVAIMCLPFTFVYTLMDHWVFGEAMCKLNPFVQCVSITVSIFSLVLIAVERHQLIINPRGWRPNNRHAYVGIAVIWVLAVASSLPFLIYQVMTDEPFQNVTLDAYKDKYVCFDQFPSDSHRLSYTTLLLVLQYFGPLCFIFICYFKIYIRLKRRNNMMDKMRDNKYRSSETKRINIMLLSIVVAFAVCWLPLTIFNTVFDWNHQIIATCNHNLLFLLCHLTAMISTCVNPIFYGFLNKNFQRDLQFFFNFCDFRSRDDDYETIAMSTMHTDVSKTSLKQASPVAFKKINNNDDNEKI
Sequence of UniProt O43193 (whole entry, unmodified, looked up): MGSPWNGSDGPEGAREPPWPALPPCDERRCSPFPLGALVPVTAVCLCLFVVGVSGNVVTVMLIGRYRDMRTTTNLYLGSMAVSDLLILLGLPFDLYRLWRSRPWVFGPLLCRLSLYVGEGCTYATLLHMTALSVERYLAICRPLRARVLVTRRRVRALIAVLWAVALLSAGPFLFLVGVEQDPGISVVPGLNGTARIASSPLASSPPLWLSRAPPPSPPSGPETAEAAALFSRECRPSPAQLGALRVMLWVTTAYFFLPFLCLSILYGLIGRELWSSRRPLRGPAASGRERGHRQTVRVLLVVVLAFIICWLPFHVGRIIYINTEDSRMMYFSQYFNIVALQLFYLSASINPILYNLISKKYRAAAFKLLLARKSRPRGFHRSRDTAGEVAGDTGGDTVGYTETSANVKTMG

Under “log2 fold change”, COC1CN([C@H]2CC[C@H]([C@@]3(C)Oc4c(Cl)cc(C(=O)NCc5c(SC)cc(C)[nH]c5=O)c(C)c4O3)CC2)C1 is recorded as 1.3 (RNA-seq, measured: MAP1LC3A mouse homolog; mouse, HT-1376 xenograft, whole blood; dose not given; reference: vehicle).
For O=C(Nc1cnccc1-c1ccc([18F])nc1)c1ccnc(NC(=O)C2CC2)c1, the SUV was 0.103 (mice, transgenic, GSK-3β, early-stage, heart; intravenous, dose not given, 120 min).
For COc1cc(C2C(NC(=O)c3ccc(NC(=O)OC(C)(C)C)cc3)(C(=O)O)C(c3ccc(OC(=O)c4cccs4)c(OC)c3)C2(NC(=O)c2ccc(NC(=O)OC(C)(C)C)cc2)C(=O)O)ccc1OC(=O)c1cccs1 (stereo not drawn), the Emax was 99.1 ± 4.66% (Glucagon-like peptide 1 receptor (GLP1R, Homo sapiens, UniProt P43220, F381A); cAMP accumulation, agonist; receptor mutant; reference: wild type).
CCOC(=O)[C@@](CC)(CCCSCCOCCOCCNC(=O)OC(C)(C)C)NC(=O)c1ccc(C2CC2)c(Cc2ccc(F)cc2)n1 has an Emax of 86% (CNR2; cAMP, agonist).
For CC[C@H](C)[C@H](NC(=O)[C@H](Cc1ccc(O)cc1)NC(=O)[C@H](CCCNC(=N)N)NC(=O)[C@H](CCCNC(=N)N)NC(=O)[C@H](CC(C)C)NC(=O)[C@H](CC(=O)O)NC(=O)[C@H](C)NC(=O)[C@H](C)NC(=O)[C@H](Cc1ccc(O)cc1)NC(=O)[C@H](CCC(N)=O)NC(=O)[C@H](C)NC(=O)[C@H](CCSC)NC(=O)[C@H](CCC(N)=O)NC(=O)[C@H](CCC(=O)O)NC(=O)[C@@H]1CCCN1C(=O)[C@@H](NC(=O)[C@H](C)NC(=O)[C@H](CC(N)=O)NC(=O)[C@H](CC(=O)O)NC(=O)CNC(=O)[C@@H]1CCCN1C(=O)[C@H](Cc1ccc(O)cc1)NC(=O)[C@@H](NC(=O)[C@@H]1CCCN1C(=O)[C@H](CCC(=O)O)NC(=O)[C@H](CC(C)C)NC(=O)[C@@H]1CCCN1C(=O)[C@H](C)N)C(C)C)[C@@H](C)O)C(=O)N[C@@H](CC(N)=O)C(=O)N[C@@H](CCSC)C(=O)N[C@@H](CC(C)C)C(=O)N[C@H](C(=O)N[C@@H](CCCNC(=N)N)C(=O)N1CCC[C@H]1C(=O)N[C@@H](CCCNC(=N)N)C(=O)N[C@@H](Cc1ccc(O)cc1)C(N)=O)[C@@H](C)O, the Emax was 100 ± 4% (Neuropeptide Y receptor type 1 (NPY1R, Homo sapiens, UniProt P25929); concentration not given).
For CC(C)C[C@H](NC(=O)[C@@H](N)[C@@H](C)O)C(=O)N[C@@H](CCC(N)=O)C(=O)N1CCC[C@H]1C(=O)N1CCC[C@H]1C(=O)N[C@@H](C)C(=O)N[C@@H](CO)C(=O)N[C@@H](CO)C(=O)N[C@@H](CCCNC(=N)N)C(=O)N[C@@H](CCCNC(=N)N)C(=O)N[C@@H](CCCNC(=N)N)C(=O)N[C@@H](Cc1c[nH]cn1)C(=O)N[C@@H](Cc1ccccc1)C(=O)N[C@@H](Cc1c[nH]cn1)C(=O)N[C@@H](Cc1c[nH]cn1)C(=O)N[C@@H](C)C(=O)N[C@@H](CC(C)C)C(=O)N1CCC[C@H]1C(=O)N1CCC[C@H]1C(=O)N[C@@H](C)C(=O)N[C@@H](CCCNC(=N)N)C(=O)O, the Emax was 56.4 ± 2.71% (C3AR1; cAMP response, agonist, GloSensor; reference: TLQP-21).
For CC(C)C[C@H](NC(=O)[C@@H](Cc1ccc2ccccc2c1)NC(=O)[C@H](Cc1ccc(O)cc1)NC(=O)[C@H](CO)NC(=O)[C@H](Cc1c[nH]c2ccccc12)NC(=O)[C@H](Cc1c[nH]cn1)NC(=O)[C@@H]1CCC(=O)N1)C(=O)N[C@@H](CCCNC(=N)N)C(=O)N1CCC[C@H]1C(=O)NCC(N)=O, the Emax was 100% (GNRHR; inositol phosphate, agonist, TR-FRET; HEK-293T; 1 h).
With CCOC(=O)C(CC)(CCCSCCOCCN)NC(=O)c1ccc(C2CC2)c(Cc2ccc(F)cc2)n1 (stereo not drawn) the Emax was 93% (CNR2; cAMP, agonist).
Under “ferric reducing power”, CC(=O)[O-].O.O.O.O.[Mn+2].[O-]c1ccc(Br)cc1C=NCCN1CCOCC1 is recorded as 45.4% (FRAP; 200 µM).
CNC(=N)NCCC[C@H](NC(=O)[C@H](CC(C)C)NC(=O)NNC(=O)[C@H](Cc1ccccc1)NC(=O)[C@@H](NC(=O)[C@H](CC(N)=O)NC(=O)[C@@H]1C[C@@H](O)CN1C(=O)[C@@H](Cc1ccc(O)cc1)NC(C)=O)[C@@H](C)O)C(=O)N[C@@H](Cc1c[nH]c2ccccc12)C(N)=O has an Emax of 96.8% (KiSS-1 receptor (KISS1R, Homo sapiens, UniProt Q969F8, L250G); inositol phosphate, agonist; HEK293).
Cc1cc(C(c2ccc(Cl)cc2)c2ccc(Cl)cc2)sc1C(=O)N[C@@H](CCCN=C(N)N)C(=O)O has an Emax of 61 ± 0.84% (C3AR1; GoA dissociation, agonist, NanoBiT G-protein).
CCOC(=O)C(CC)(CCCSCCOCCOCCN)NC(=O)c1ccc(C2CC2)c(Cc2ccc(F)cc2)n1 (racemic) has an Emax of 92% (CNR2; cAMP, agonist).
CN1CCCNC(=O)c2cccc(c2)C(=O)NCCCN(C)CCCNc2cccc3c2C(=O)c2cccc(c2C3=O)NCCC1 — result for “log2 fold change”: -0.529 (SAS; RNA-Seq, measured: TM9SF4 mRNA; 1 µM, 6 h; reference: untreated cells).
Cc1ncsc1-c1ccc(C(C)NC(=O)C2CC(O)CN2C(=O)C(NC(=O)CCCCCCCCCCN2CCCC(Nc3ncc(Cl)c(Nc4ccccc4S(=O)(=O)C(C)C)n3)C2)C(C)(C)C)cc1 (stereo not drawn) — result for “log2 fold change”: -1.67 (22Rv1; RNA-seq, measured: RORC mRNA; concentration not given; reference: DMSO).
CCc1cc(O)cc2c(/C=N/NC(=N)NCCc3ccc(Cl)cc3)c[nH]c12 gave an Emax of 45.3 ± 2.64% (Relaxin-3 receptor 2 (RXFP4, Homo sapiens, UniProt Q8TDU9, T295V); HEK-293T; reference: wild type).
CCNC(=O)[C@@H]1CCCN1C(=O)[C@H](CCCNC(=N)N)NC(=O)[C@H](CC(C)C)NC(=O)[C@@H](COC(C)(C)C)NC(=O)[C@H](Cc1ccc(O)cc1)NC(=O)[C@H](CO)NC(=O)[C@H](Cc1c[nH]c2ccccc12)NC(=O)[C@H](Cc1c[nH]cn1)NC(=O)[C@@H]1CCC(=O)N1 gave an Emax of 100% (GNRHR; inositol phosphate, agonist, TR-FRET; HEK-293T; 1 h).
For [2H]C([2H])([18F])Oc1cc(C(=O)OCC2CCN(CCCC)CC2)ccc1N, “binding potential BPND” read 1.19 ± 0.15 (5-HT4 receptor binding, PET; rhesus monkey (Macaca mulatta), brain striatum; dose not given, baseline scan, unit not given; reference: cerebellum reference region).
For CC(C)C[C@H](NC(=O)[C@H](C)NC(=O)[C@H](CO)NC(=O)[C@@H]1CCCN1C(=O)[C@@H]1CCCN1C(=O)[C@H](CCC(N)=O)NC(=O)[C@H](CC(C)C)NC(=O)[C@@H](N)[C@@H](C)O)C(=O)N[C@@H](CCCNC(=N)N)C(=O)N[C@@H](CCCNC(=N)N)C(=O)N[C@@H](CCCNC(=N)N)C(=O)N[C@@H](Cc1c[nH]cn1)C(=O)N[C@@H](Cc1ccc(O)cc1)C(=O)N[C@@H](Cc1c[nH]cn1)C(=O)N[C@@H](Cc1c[nH]cn1)C(=O)N[C@@H](C)C(=O)N[C@@H](CC(C)C)C(=O)N1CCC[C@H]1C(=O)N1CCC[C@H]1C(=O)N[C@@H](CO)C(=O)N[C@@H](CCCNC(=N)N)C(=O)O, the Emax was 57.1 ± 3.48% (C3AR1; cAMP response, agonist, GloSensor; reference: TLQP-21).
For CC[C@H](C)[C@H](NC(=O)[C@@H]1CCCN1C(=O)[C@@H](NC(=O)[C@@H](N)Cc1ccccc1)C(C)C)C(=O)N[C@@H](Cc1ccccc1)C(=O)N[C@H](C(=O)N[C@@H](Cc1ccc(O)cc1)C(=O)NCC(=O)N[C@@H](CCC(=O)O)C(=O)N[C@@H](CC(C)C)C(=O)N[C@@H](CCC(N)=O)C(=O)N[C@@H](CCCNC(=N)N)C(=O)N[C@@H](CCSC)C(=O)N[C@@H](CCC(N)=O)C(=O)N[C@@H](CCC(=O)O)C(=O)N[C@@H](CCCCN)C(=O)N[C@@H](CCC(=O)O)C(=O)N[C@@H](CCCNC(=N)N)C(=O)N[C@@H](CC(N)=O)C(=O)N[C@@H](CCCCN)C(=O)NCC(=O)N[C@@H](CCC(N)=O)C(=O)O)[C@@H](C)O, the Emax was 149 ± 9.3% (Motilin receptor (MLNR, Homo sapiens, UniProt O43193, del183-219); IP1 accumulation, agonist, IP-One HTRF; AD293 cells; 1 h, 37 °C).
CCOC(=O)C(CC)(CCCSCCOCCOCCOCCOCCNc1ccc([N+](=O)[O-])c2nonc12)NC(=O)c1ccc(C2CC2)c(Cc2ccc(F)cc2)n1 (stereo not drawn) has an Emax of 102% (CNR2; cAMP, agonist).
Cc1nn(-c2cccc(N)c2)c(=O)c2cnc(Nc3ccc(N4CCNCC4)cc3)nc12 gave an IC50 of greater than 10 µM (Receptor tyrosine-protein kinase erbB-2 (ERBB2, Homo sapiens, UniProt P04626); enzyme activity, inhibitor).
For C=CC(=O)Nc1cccc(Cn2ncc3cnc(Nc4cnn(CCOC)c4)nc32)c1, “percent of control” read 87% (INSR human; binding, KINOMEscan; 100 nM; lower = stronger binding).
CC[C@H](C)[C@@H]1NC(=O)[C@H](Cc2ccccc2)NC(=O)[C@H](CCC(=O)O)NC(=O)[C@H](CCCNC(=N)N)NC(=O)CNC(=O)[C@@H](NC(=O)[C@H](CC(C)C)NC(=O)[C@H](CCCNC(=N)N)NC(=O)[C@@H](NC(=O)CNC(=O)[C@H](Cc2ccc(O)cc2)NC(=O)[C@@H]2CCCN2C(=O)[C@H](C)NC(=O)[C@H](C)NC(=O)[C@@H](N)CCCNC(=N)N)C(C)C)CSSC[C@@H]2NC(=O)[C@@H](NC(=O)[C@H](CO)NC(=O)[C@H](CO)NC(=O)[C@H](CO)NC(=O)[C@H](CC(C)C)NC(=O)CNC(=O)[C@H](C)NC(=O)[C@H](CC(C)C)NC(=O)[C@@H](NC(=O)[C@@H](N)CC(=O)O)C(C)C)CSSC[C@H](NC(=O)CNC(=O)[C@H](Cc3c[nH]c4ccccc34)NC(=O)[C@H](CCCCN)NC2=O)C(=O)N[C@@H](CO)C(=O)N[C@@H](CCCCN)C(=O)N[C@@H](CO)C(=O)N[C@@H](CCC(=O)O)C(=O)N[C@@H]([C@@H](C)CC)C(=O)N[C@@H](CO)C(=O)N[C@@H](CO)C(=O)N[C@@H](CC(C)C)C(=O)N[C@H](C(=O)O)CSSC[C@@H](C(=O)NCC(=O)NCC(=O)N[C@@H](CO)C(=O)N[C@@H](CCCNC(=N)N)C(=O)N[C@@H](Cc2c[nH]c3ccccc23)C(=O)O)NC(=O)[C@H]([C@@H](C)O)NC(=O)[C@H](Cc2ccccc2)NC(=O)[C@H]([C@@H](C)CC)NC(=O)[C@H](C(C)C)NC(=O)[C@H](C)NC(=O)[C@H](CCCNC(=N)N)NC1=O has an Emax of 33 ± 3.81% (Relaxin-3 receptor 2 (RXFP4, Homo sapiens, UniProt Q8TDU9, S101A); HEK-293T; reference: wild type).
For O=C(Cc1ccc([N+](=O)[O-])cc1)N[C@H]1CCOC1=O, the Emax was 95% (Regulatory protein SdiA (sdiA, Escherichia coli, UniProt P07026)).

For quick reference, copied from above:
For [2H]C([2H])([18F])Oc1cc(C(=O)OCC2CCN(CCCC)CC2)ccc1N, “binding potential BPND” read 1.19 ± 0.15 (5-HT4 receptor binding, PET; rhesus monkey (Macaca mulatta), brain striatum; dose not given, baseline scan, unit not given; reference: cerebellum reference region).
For CC(C)C[C@H](NC(=O)[C@H](C)NC(=O)[C@H](CO)NC(=O)[C@@H]1CCCN1C(=O)[C@@H]1CCCN1C(=O)[C@H](CCC(N)=O)NC(=O)[C@H](CC(C)C)NC(=O)[C@@H](N)[C@@H](C)O)C(=O)N[C@@H](CCCNC(=N)N)C(=O)N[C@@H](CCCNC(=N)N)C(=O)N[C@@H](CCCNC(=N)N)C(=O)N[C@@H](Cc1c[nH]cn1)C(=O)N[C@@H](Cc1ccc(O)cc1)C(=O)N[C@@H](Cc1c[nH]cn1)C(=O)N[C@@H](Cc1c[nH]cn1)C(=O)N[C@@H](C)C(=O)N[C@@H](CC(C)C)C(=O)N1CCC[C@H]1C(=O)N1CCC[C@H]1C(=O)N[C@@H](CO)C(=O)N[C@@H](CCCNC(=N)N)C(=O)O, the Emax was 57.1 ± 3.48% (C3AR1; cAMP response, agonist, GloSensor; reference: TLQP-21).
For CC[C@H](C)[C@H](NC(=O)[C@@H]1CCCN1C(=O)[C@@H](NC(=O)[C@@H](N)Cc1ccccc1)C(C)C)C(=O)N[C@@H](Cc1ccccc1)C(=O)N[C@H](C(=O)N[C@@H](Cc1ccc(O)cc1)C(=O)NCC(=O)N[C@@H](CCC(=O)O)C(=O)N[C@@H](CC(C)C)C(=O)N[C@@H](CCC(N)=O)C(=O)N[C@@H](CCCNC(=N)N)C(=O)N[C@@H](CCSC)C(=O)N[C@@H](CCC(N)=O)C(=O)N[C@@H](CCC(=O)O)C(=O)N[C@@H](CCCCN)C(=O)N[C@@H](CCC(=O)O)C(=O)N[C@@H](CCCNC(=N)N)C(=O)N[C@@H](CC(N)=O)C(=O)N[C@@H](CCCCN)C(=O)NCC(=O)N[C@@H](CCC(N)=O)C(=O)O)[C@@H](C)O, the Emax was 149 ± 9.3% (Motilin receptor (MLNR, Homo sapiens, UniProt O43193, del183-219); IP1 accumulation, agonist, IP-One HTRF; AD293 cells; 1 h, 37 °C).
